Results collected from several papers.
Every numbered part comes from another study and shows a few of its results, in no order. Positions count from the first letter of the parent shown.

Set 1 — method: DHFR PCA, deep sequencing; medium: yeast; together with: (+)-ABA 710 µM; baseline: wild-type fitted maximum; direction: higher = stronger binding
Target: ABI1, truncated, D143A, DHFR fusion (Arabidopsis thaliana)
Setting: methotrexate growth selection, single substitutions
Parent: PYL1, truncated, DHFR fusion (Arabidopsis thaliana); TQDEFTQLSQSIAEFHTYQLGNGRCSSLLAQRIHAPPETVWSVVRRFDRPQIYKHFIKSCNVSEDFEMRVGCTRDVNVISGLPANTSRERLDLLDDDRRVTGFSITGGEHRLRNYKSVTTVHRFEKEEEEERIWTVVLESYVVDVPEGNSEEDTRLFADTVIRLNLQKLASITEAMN; partner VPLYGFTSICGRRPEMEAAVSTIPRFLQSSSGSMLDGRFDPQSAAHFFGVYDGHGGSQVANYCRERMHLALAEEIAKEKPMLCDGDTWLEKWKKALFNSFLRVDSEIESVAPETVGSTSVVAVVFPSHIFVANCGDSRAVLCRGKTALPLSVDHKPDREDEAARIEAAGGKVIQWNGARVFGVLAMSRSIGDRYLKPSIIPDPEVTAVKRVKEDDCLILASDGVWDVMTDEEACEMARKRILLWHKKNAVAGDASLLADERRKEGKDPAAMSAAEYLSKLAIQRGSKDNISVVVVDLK
Substitution | relative binding score
Y141P | -8.96%
Q10A | 108%
T39M | 97.1%
N114V | -2.83%
R155S | 87.2%
L29I | 100%
D3L | 101%
Y53H | 99.6%
S26N | 93.6%
D144S | 86.5%
E109D | 115%
S87K | 8.67%
T154D | -15.3%
V40W | -10.3%
V145R | 87%
D144K | 78.9%
A158K | -0.257%
T119V | 95.3%
T73G | 87.5%
E109K | 100%
R90Y | 75.8%
V118M | 107%
D3N | 89.9%

Set 2 — target: NFE2L1, bZIP domain (human); method: DHFR protein complementation; medium: yeast; baseline: wild-type JUN-FOS pair; direction: higher = stronger binding
Setting: single substitutions, most at no-binding floor
Parent: JUN, bZIP domain (human); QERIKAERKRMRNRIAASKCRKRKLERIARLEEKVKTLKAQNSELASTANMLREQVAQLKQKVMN; partner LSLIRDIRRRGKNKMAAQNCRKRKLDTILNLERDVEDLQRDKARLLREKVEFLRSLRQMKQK
Substitution | binding fitness [natural log]
A46H | -1.59
N42Y | -1.51
L52K | -1.57
K34W | -1.4
I28T | -1.42
L59G | -1.42
L45S | -1.58
A46S | -1.44
S43E | -1.45
Q41A | -1.36
T48I | -1.53
A49K | -1.48
S47R | -1.34
R30E | -1.23
T37K | -1.45
E44N | -1.59
A49N | -1.42
K34G | -1.53
T37W | -1.45
M51I | -1.68
L38A | -1.51
N42R | -1.45
A29R | -1.45
A40R | -1.46
L31Q | -1.41

Set 3 — method: protein binding microarray; molecule type: double-stranded DNA, one strand shown; medium: in vitro; tested at: not given; baseline: not given; direction: higher = stronger binding
Target: Histone acetyltransferase KAT6A, winged helix 2, GST fusion (KAT6A, Homo sapiens, UniProt Q92794, residues 85-181)
Setting: 8-mer, flanks averaged, mean of 2 arrays, mostly near background
Residues (chain): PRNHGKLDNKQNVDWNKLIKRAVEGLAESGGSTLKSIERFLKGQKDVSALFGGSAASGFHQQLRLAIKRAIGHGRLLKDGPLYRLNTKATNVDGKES
Oligonucleotide | E-score
GGGAATAA | 0.0351
AGCTAGGG | -0.0183
CTCGGTAC | -0.173
ACGAGGGG | -0.0262
CAAATGGA | 0.00451
AGCAATCC | 0.0105
GTCAAACA | -0.182
CAACTTAC | -0.249
ATCTCGTC | -0.00292
ACTCATTC | -0.213
AACGAAGC | 0.0189
AAATTGGA | -0.0769
CCCAGGGG | 0.00709
CCTAAATC | -0.00869
CACGGATC | 0.0644
ATATGGAT | -0.0012
CCAGCTGC | -0.0402
ACTTAGAG | -0.0499
GGGTTGAC | -0.0737
CACAGTCA | -0.146
AGGTGGTG | -0.168

Set 4 — target: UBE2L3 UBC core domain (UniProt P68036); method: yeast two-hybrid; medium: yeast; setting: mostly zero background; baseline: not given; direction: higher = stronger interaction
Chain of UniProt P68036 (whole entry, looked up): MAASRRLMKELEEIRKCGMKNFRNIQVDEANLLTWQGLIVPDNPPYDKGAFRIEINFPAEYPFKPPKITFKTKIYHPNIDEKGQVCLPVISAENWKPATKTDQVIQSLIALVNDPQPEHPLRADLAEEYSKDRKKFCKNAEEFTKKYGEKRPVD
B1: RNF25 RING domain (UniProt Q96BH1); chain LTDNNIPHGQCVICLYGFQEKEAFTKTPCYHYFHCHCLARYIQHMEQELKAQGQEQEQERQHATTKQKAVGVQCPVCREPLVYDLASL
B2: RNF170 RING domain (UniProt Q96K19); chain TRQQFYTDMYCPICLHQASFPVETNCGHLFCGACIIAYWRYGSWLGAISCPICRQTVTLLLTVF
B3: MID1 RING domain (UniProt O15344); chain METLESELTCPICLELFEDPLLLPCAHSLCFNCAHRILVSHCATNESVESITAFQCPTCRHVITLSQRGL
B4: RC3H2 RING domain (UniProt Q9HBD1); chain QAAQWTEFLSCPICYNEFDENVHKPISLGCSHTVCKTCLNKLHRKACPFDQTAINTDIDVL
Molecule | lacZ reporter activity
B1 (RNF25 RING domain) | 0
B2 (RNF170 RING domain) | 0
VTLSLTLPITCHICLGKVRQPVICINNHVFCSICIDLWLKNNSQCPACRVPITPENPCK (OBI1 RING domain (UniProt Q5W0B1)) | 0
B3 (MID1 RING domain) | 0
B4 (RC3H2 RING domain) | 0
FPEHFVKSISCQICEHILADPVETNCKHVFCRVCILRCLKVMGSYCPSCRYPCFPTDLES (RAG1 RING domain (UniProt P15918)) | 0
PEELQAMDNVCIICREEMVTGAKRLPCNHIFHTSCLRSWFQRQQTCPTCRMDVLRASLPA (SYVN1 RING domain (UniProt Q86TM6)) | 0
QLQDIKEQTMCPVCLDRLKNMIFLCGHGTCQLCGDRMSECPICRKAIERRILLY (MIB1 RING domain (UniProt Q86YT6)) | 0
KTLSRFGIQPCSICLGDAKDPVCLPCDHVHCLRCLRAWFASEQMICPYCLTALPDEFSPA (RNF213 RING domain (UniProt Q63HN8)) | 0

Set 5 — target: CCNE1, cyclin fold, Cln2 fusion (human); method: yeast growth competition, sequencing; medium: yeast; setting: weak parent motif; baseline: not given; direction: higher = stronger binding
Parent: PKN2 docking peptide (human); VSAVQKLDFSDTM
Substitution | normalised enrichment score
VSAVQKLDFIDTM [S10I] | 0.778
VSAVQKLMFSDTM [D8M] | 1.26
ESAVQKLDFSDTM [V1E] | 0.561
VSAAQKLDFSDTM [V4A] | 0.192
VSAVQKLSFSDTM [D8S] | 0.241
VSAVQKLDHSDTM [F9H] | -0.639
VSADQKLDFSDTM [V4D] | 0.315
VSAVQKLDTSDTM [F9T] | -0.0895
VSAVQKLRFSDTM [D8R] | -0.181
VSAVQNLDFSDTM [K6N] | 0.828
VSAVQSLDFSDTM [K6S] | 0.85
VSAVQKYDFSDTM [L7Y] | -0.252
VSSVQKLDFSDTM [A3S] | 0.379
VSAVQKLDFSDTL [M13L] | 0.572
VSAVQKLDFSDSM [T12S] | 0.825
VSAVQKLDFHDTM [S10H] | 0.611
VFAVQKLDFSDTM [S2F] | 0.54
ISAVQKLDFSDTM [V1I] | -0.201
VSAVQKLDFSDVM [T12V] | 0.766
GSAVQKLDFSDTM [V1G] | 0.886
VSAVQDLDFSDTM [K6D] | 0.0324
VSAEQKLDFSDTM [V4E] | 0.018
VSAVQKLDFKDTM [S10K] | 0.113
VSAVQKLDFTDTM [S10T] | 0.5
VSNVQKLDFSDTM [A3N] | -0.0804

Excerpt of the above (set 3):
Oligonucleotide | E-score
CCCAGGGG | 0.00709
CACGGATC | 0.0644
CACAGTCA | -0.146
AGCTAGGG | -0.0183
AGCAATCC | 0.0105
AAATTGGA | -0.0769
AGGTGGTG | -0.168
GTCAAACA | -0.182
AACGAAGC | 0.0189
